Measured values gathered from unrelated publications.
Lines come from different studies, so protocols differ.

For `C=CC(=O)NC1CCN(c2ncc3ncnc(Nc4ccc(Oc5ccc6c(c5)ncn6C)c(C)c4)c3n2)CC1`, “patients with Constipation” read 0% (male patients; oral, dose not given, on-treatment adverse events).
For `COc1cc2nccc(Oc3ccc(NC(=O)c4cc5c(n(-c6ccccc6)c4=O)CCCC5=O)nc3)c2cc1OC`, “patients with TEAEs grade ≥3” read 100% (CTCAE; patients with relapsed/refractory AML; oral, 6 mg once daily).
`CCOc1c([C@H](C)n2nc(C)c3c(N)ncnc32)cc(Cl)c(F)c1[C@@H]1CNC(=O)C1`: “patients with high heart rate” 7.7% (measured: heart rate > 100 bpm; previously treated B-cell malignancy; oral, 30 mg once daily).
`COc1cc(Nc2ncc3c(n2)-c2ccc(Cl)cc2C(c2c(F)cccc2OC)=NC3)ccc1C(=O)O`: “patients with increased LDH” 25% (cancer patients; oral, dose not given, grade 1 any attribution, with: pembrolizumab).
Under “patients with immune-mediated AE”, `Cc1cc(-c2nnc(N)nc2-c2ccc(F)cc2)cc(Cl)n1` is recorded as 0% (measured: myositis; post-IO NSCLC patients; oral, 100 mg once daily, treatment-related, grade 2).
Under “patients with adverse event”, `CNC(=O)c1ccc(-c2cnc3ncc(Cc4ccc5ncccc5c4)n3n2)cc1F` is recorded as 0% (measured: Headache; other cancer patients; oral, 600 mg twice daily, expansion cohort, grade 3-4).
Under “patients with adverse events”, `C=CC(=O)Nc1cc(Nc2nccc(-c3cn(C)c4ccccc34)n2)c(OC)cc1N(C)CCN(C)C` is recorded as 3% (measured: treatment-related grade ≥3 Rash; EGFR-mutant MET-altered NSCLC; oral, dose not given, all).
For `CC(C)C[C@H](NC(=O)CNC(=O)c1cc(Cl)ccc1Cl)B(O)O`, “patients with adverse event” read 0% (measured: Pneumonia, all grades; newly diagnosed multiple myeloma patients; oral, dose not given, maintenance phase, new onset, cycle 17 or later).
Under “patients with treatment-related adverse event”, `FC(F)(F)c1ccc(CNc2ccc(Cc3c[nH]c4ncc(Cl)cc34)cn2)cn1` is recorded as 100% (measured: at least 1 adverse event; patients with TGCT; oral, 1000 mg/day, all grades).
`C[C@@H](c1ccc2nccn2c1)n1nnc2ncc(-c3cnn(C)c3)nc21` — result for “patients with treatment-related AEs”: 0% (measured: Thrombocytopenia grade ≥3; EGFR-mutant MET-altered NSCLC; oral, dose not given, study).
For `NC(=O)N1c2ccccc2C=Cc2ccccc21`, “patients with abdominal discomfort” read 7% (male patients; oral, dose not given, on-treatment adverse events).
`COc1ccc([C@@H](O)c2cc(-c3ncnc4cc(N5CCOCC5)ccc34)c(F)cc2Cl)nn1` — result for “patients with drug-related AE”: 50% (measured: general and administration site disorders; locally advanced rectal cancer patients; 250 mg, with: capecitabine plus radiotherapy).
`Cc1cc(NC2CCN(C(=O)OC3CCN(C(=O)/C=C/CN(C)C)C3)CC2)n2ncc(C(C)C)c2n1` (stereo not drawn): “patients with adverse event” 0% (Phase I dose escalation CTCAE v4.0, measured: dermatitis acneiform; patients with advanced solid tumours; dose not given, QD dosing grade 3 or higher).
Under “patients with noninfective cystitis”, `O=C(Nc1nc2cccc(-c3ccc(CN4CCS(=O)(=O)CC4)cc3)n2n1)C1CC1` is recorded as 0% (rheumatoid arthritis patients; oral, 100 mg twice daily, 4 weeks, regardless of relatedness).
`C[C@@H](Nc1cc(F)cc(F)c1)c1cc(C(=O)N(C)C)cc2c(=O)cc(N3CCOCC3)oc12` — result for “patients with related SAE”: 0% (CTCAE v4, measured: lung infection; patients with advanced solid tumours; oral, dose not given, phase I dose finding).

A few entries again:
`C[C@@H](c1ccc2nccn2c1)n1nnc2ncc(-c3cnn(C)c3)nc21` — result for “patients with treatment-related AEs”: 0% (measured: Thrombocytopenia grade ≥3; EGFR-mutant MET-altered NSCLC; oral, dose not given, study).
For `NC(=O)N1c2ccccc2C=Cc2ccccc21`, “patients with abdominal discomfort” read 7% (male patients; oral, dose not given, on-treatment adverse events).
